Results from different studies.
Each line is one published result; not all experiments were run side by side. Several values in a cell are separate wells, animals, samples, runs or records.
Target: Serine/threonine-protein kinase Sgk3 (SGK3, Homo sapiens, UniProt Q96BR1)

SMILES | test | test system | conditions | how to read | quantity | value
C=CC(=O)Nc1cccc(-c2cnc3[nH]cc(C(=O)NC(C)(C)C)c3n2)c1 | kinase activity |  | 0.1 µM |  | inhibition | 6% and 2%
COCC12C(=O)NC3C4(C(OC)CC1O)C1CC5(O)C(OC)C(O)C(OC(C)=O)(C1C5OC(=O)c1ccccc1)C3(O)C(OC)C24 (centres unmarked) | kinase activity, inhibitor, ProQinase kinase profiling |  | 25 µM | relative to: control | remaining activity | 91% and 96%
C=CC(=O)N1CCCC(n2c(=O)c3ncccc3n(Cc3ccc(Oc4ccccc4)cc3)c2=O)C1 (centres unmarked) | cell-free assay, competition with immobilised ligand |  | 1 µM |  | remaining binding | 70%
CC(C)=CC1OC(C)(C)C2C=C3C(=O)C(Cl)=CC(O)C3C3C(O)C4OC4C(=O)C132 (centres unmarked) | cell-free assay, competition with immobilised ligand |  | 10 µM |  | remaining binding | 59%
COC(=O)[C@@]1(C)C=C(C(=O)Nc2cccc(C(=O)Nc3ccc(Nc4nccc(-c5cccnc5)n4)c(C)c3)c2)C(=O)CC1 | enzyme activity, inhibitor, radiometric |  | 1 µM |  | remaining activity | 106%
NC(=O)[C@@H](O)C[C@H]1CCc2sc3ncnc(O[C@H]4CC[C@H](N5CCOCC5)CC4)c3c21 | enzyme activity, inhibitor |  | 10 µM |  | inhibition | 1%
Nc1ncc2c(n1)-c1c([nH]c3ccc(C4=CCOCC4)cc13)CCC2 | binding, competition with immobilised ligand |  | 1 µM |  | remaining binding | 100%
C=CC(=O)N1Cc2nc(-c3cc(-c4cc(Cl)cnc4Cl)c(F)cc3F)n(-c3ccncn3)c2C1 | cell-free assay, inhibitor |  | 1 µM |  | inhibition | 4.5%
CCN1CCN(Cc2ccc(C(=O)Nc3ccc(C)c(NCc4cnc5[nH]ccc5c4OC)c3)cc2C(F)(F)F)CC1 | binding, competition with immobilised ligand |  | 1 µM |  | remaining binding | 48%
Cc1ccc(C(=O)Nc2ccc(CN3CCN(C)CC3)c(C(F)(F)F)c2)cc1C#Cc1cnc2cccnn12 | target engagement, NanoBRET | human cells |  |  | Hill slope | 1
Cc1cccc(O[C@H]2CCC[C@@H](C(C)CNCc3ccncc3)C2)c1 (relative stereo) | enzyme activity, inhibitor |  | 10 µM |  | inhibition | -2%
Cc1cnc2nc1Nc1cccc(c1)COC/C=C/COCc1cc(ccc1OCCN1CCOCC1)N2 | binding, competition with immobilised ligand |  | 0.1 µM |  | remaining binding | 98%
CN1CCN(Cc2ccc(-c3ccc(CO[C@H]4CCC[C@@H]4NC(=O)c4cc(-c5cnn(C)c5)cnc4N)cc3)cc2)CC1 | enzyme activity, inhibitor |  | 0.1 µM |  | inhibition | 24%
CNC1C[S+]2CC[S+]3CC[S+](C1)[Ru-4]321([N]=C=S)[n]2c3ccc(OC)cc3c3c4c(c5cc(F)c[n+]1c5c32)C(=O)NC4=O (centres unmarked) | KinomeScan |  | 0.1 µM | relative to: untreated | remaining binding | 80%
COc1cc(Nc2nccc(-c3cnn4nc(OC)ccc34)n2)cc(C(F)(F)F)c1 | binding, competition with immobilised ligand |  | 1 µM |  | remaining binding | 100%
CS(=O)(=O)Nc1cccc(-c2csc3cnc(Nc4ccc(N5CCN(CCCCCOc6cccc7c6C(=O)N(C6CCC(=O)NC6=O)C7=O)CC5)cc4)nc23)c1 (centres unmarked) | probe labelling, inhibitor, KiNativ chemoproteomics | MOLT-4 | 1 µM |  | inhibition | 18.5%
Cc1nc2c(F)cc(-c3nc(Nc4ccc(CNC(=O)CCCCCCC(=O)NO)cc4)ncc3F)cc2n1C(C)C | enzyme activity, inhibitor |  | 1 µM |  | inhibition | 26%

A few entries again:
SMILES | test | test system | conditions | how to read | quantity | value
CCN1CCN(Cc2ccc(C(=O)Nc3ccc(C)c(NCc4cnc5[nH]ccc5c4OC)c3)cc2C(F)(F)F)CC1 | binding, competition with immobilised ligand |  | 1 µM |  | remaining binding | 48%
